Published values of several laboratories.
Each numbered part is a random draw from the data of one study; scales do not carry over between parts. Positions count from the first letter of the parent shown.

Sample 1
Target: ABI1, truncated, D143A, DHFR fusion (Arabidopsis thaliana)
Technique: DHFR PCA, deep sequencing
Medium: yeast
Notes: methotrexate growth selection, single substitutions
With: (+)-ABA 58 µM
Reference: wild-type fitted maximum
Reading: higher = stronger binding
Quantity: relative binding score
Starting sequence: PYL1, truncated, DHFR fusion (Arabidopsis thaliana); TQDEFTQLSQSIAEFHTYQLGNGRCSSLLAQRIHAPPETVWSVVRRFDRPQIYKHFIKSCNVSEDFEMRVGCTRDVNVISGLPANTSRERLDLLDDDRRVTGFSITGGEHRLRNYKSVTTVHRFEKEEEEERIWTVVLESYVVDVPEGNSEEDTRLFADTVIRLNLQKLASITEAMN
R24Y: 63.1%
L8A: 58%
R46M: 75.6%
T73I: 88.2%
E127N: 95%
H55S: 87.8%
E131M: 96.1%
E174L: 51.2%
T160Y: 74.6%
V40P: -5.95%
I52F: 76.2%
Y53W: 81%
K116I: 11.6%
V161Y: 41.1%
L28Q: 51.9%
V142F: 48.1%
V70S: 61%
V121R: -11.3%

Sample 2
Target: Interferon regulatory factor 3, full length, phosphomimetic (IRF3, Homo sapiens, UniProt Q14653, residues 1-427, S386D/S396D/S398D/S402D/T404D/S405D)
Technique: protein-binding microarray
Form: double-stranded DNA, one strand shown
Medium: in vitro
Concentration: 2540 nM top
Notes: 60-bp whole probe
With: salmon DNA 0.4 mg/ml
Reference: random background probes
Reading: higher = stronger binding
Quantity: fitted relative affinity
Constant ends, left off below: GCCTAGCAC … GTCTTGATTCGCTTGACGCTGCTG
Target sequence (chain): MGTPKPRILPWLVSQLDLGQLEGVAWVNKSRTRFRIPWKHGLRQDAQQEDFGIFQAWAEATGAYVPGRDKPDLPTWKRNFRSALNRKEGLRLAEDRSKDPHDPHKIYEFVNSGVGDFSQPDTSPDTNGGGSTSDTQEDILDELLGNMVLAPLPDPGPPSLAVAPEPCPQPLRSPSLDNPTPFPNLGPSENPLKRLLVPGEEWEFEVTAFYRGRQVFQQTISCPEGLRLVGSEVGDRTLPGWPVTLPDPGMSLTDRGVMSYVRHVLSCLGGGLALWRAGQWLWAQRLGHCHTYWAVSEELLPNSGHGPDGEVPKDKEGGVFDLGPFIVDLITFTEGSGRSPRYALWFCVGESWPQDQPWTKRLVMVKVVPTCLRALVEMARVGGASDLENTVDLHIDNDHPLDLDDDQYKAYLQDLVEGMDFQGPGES
TCTGATTTCTCAAACAGCTCGTGCTAG: 0.497 z-score
TTAGGTATCGGACTGCGTTAGTGCTAG: 1.22 z-score
CTGCTGATCGGTTGGGGTGGGTGCTAG: -0.0653 z-score
GACGGTAACCTTATCCTGACGTGCTAG: 0.971 z-score
GACGGTGTCCTTATCCTGACGTGCTAG: 2.52 z-score
AATTAAATGATATATATCCATGTGCTA: 0.447 z-score
GGGCATTTGGAAAATGAAAATGTGCTA: 0.274 z-score
GGCTTTTTAATGAATGAAGAGGTGCTA: -0.128 z-score
GACGGTATCGACTTTCGCGACGTGCTA: 1.24 z-score
TTAGGTATCGGTTCCGGTTAGTGCTAG: 6.46 z-score
TCAAAAAATGGAAATCTAACTGTGCTA: -0.0142 z-score
CTGCCTTTCAATCCTAGGCCGTGCTAG: 0.998 z-score
AACTGTCTGCCTTTCAATCCGTGCTAG: 0.483 z-score
TTAGGACTGCTACTGCTGTAGTGCTAG: -0.844 z-score
GGCGGTTTCCTTTCCCTGACGTGCTAG: 10.5 z-score
TTAGAGCTCCTCCTTCTCTAAGTGCTA: 1.03 z-score
CTCATTCGTCATTTCACAGTGTGCTAG: 1.42 z-score
AGATGGTCCTCTCTCTATTCGTGCTAG: 0.479 z-score
TTAGGACTGGGTATCGGTAAGTGCTAG: -0.00639 z-score
TTAGATTTCGGGTTTGGATTAGTGCTA: 2.22 z-score
TCACCTTTCCAAATACCACTGTGCTAG: 4.6 z-score
TTAAAACTGAGTATCGATTAGTGCTAG: 0.396 z-score
CTCTACATGGGTATAGAGTAGTGCTAG: -0.307 z-score
TCACCTCTCCTCTCAGGAACTGTGCTA: 0.607 z-score

Sample 3
Target: Histone acetyltransferase KAT6A, both winged helices, GST fusion (KAT6A, Homo sapiens, UniProt Q92794, residues 1-181)
Technique: protein binding microarray
Form: double-stranded DNA, one strand shown
Medium: in vitro
Concentration: not given
Notes: 8-mer, flanks averaged, mean of 2 arrays, mostly near background
Reference: not given
Reading: higher = stronger binding
Quantity: E-score
Residues (chain): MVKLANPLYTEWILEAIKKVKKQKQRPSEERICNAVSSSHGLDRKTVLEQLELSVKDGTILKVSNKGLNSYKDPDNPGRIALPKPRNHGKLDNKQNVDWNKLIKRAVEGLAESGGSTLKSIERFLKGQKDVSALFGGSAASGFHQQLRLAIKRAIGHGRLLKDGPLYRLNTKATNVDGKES
CCAGTGAG: -0.15
ACCCTTGC: -0.0423
GAGATAGC: -0.0759
AAAGGCAT: -0.174
CTGCGTCA: 0.107
CCTAACTC: -0.0463
AAAAACTA: 0.0343
CTAAAGGC: -0.0791
ACAAAATA: -0.108
TCCAAGCA: -0.0631
CGGATGAC: 0.163
ACCCGCGT: 0.296
AGAACTTG: -0.219
AAGTGTGC: -0.104
AAGACGCT: 0.157
GGCTTGAC: -0.0751
AGGGAGCC: -0.0199
AATATAGC: -0.0704
CTAGAGGC: -0.00526

Sample 4
Target: DBP, bZIP domain (human)
Technique: DHFR protein complementation
Medium: yeast
Notes: single substitutions, most at no-binding floor
Reference: wild-type JUN-FOS pair
Reading: higher = stronger binding
Quantity: binding fitness
Starting sequence: JUN, bZIP domain (human); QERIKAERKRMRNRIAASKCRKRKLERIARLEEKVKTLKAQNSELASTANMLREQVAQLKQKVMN; partner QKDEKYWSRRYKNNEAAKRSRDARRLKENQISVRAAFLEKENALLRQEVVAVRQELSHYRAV
T48L: -1.51 natural log
R30K: -1.53 natural log
I28R: -1.29 natural log
A29Y: -1.48 natural log
S47D: -1.36 natural log
T48R: -1.49 natural log
L31C: -1.38 natural log
M51D: -1.48 natural log
L45Y: -1.41 natural log
L45A: -1.57 natural log
R30S: -1.28 natural log
A49S: -1.4 natural log
K36T: -1.52 natural log
E32H: -1.29 natural log
R30E: -1.27 natural log
I28V: -1.49 natural log
E54W: -1.5 natural log
V35Y: -1.4 natural log
L31I: -1.14 natural log
K39D: -1.43 natural log
N42Q: -1.49 natural log
A49W: -1.51 natural log
M51E: -1.39 natural log
M51T: -1.32 natural log
V56L: -1.51 natural log

Sample 5
Target: CCND1, cyclin fold, Cln2 fusion (human)
Technique: yeast growth competition, sequencing
Medium: yeast
Notes: weak parent motif
Reference: not given
Reading: higher = stronger binding
Quantity: normalised enrichment score
Starting sequence: WEE2 docking peptide (human); KELRQKLNFSYCE
KELRQALNFSYCE [K6A]: 0.382
KELRQKANFSYCE [L7A]: -0.0983
KELRQKLNFSYAE [C12A]: -0.236
AELRQKLNFSYCE [K1A]: 0.0654
KELRAKLNFSYCE [Q5A]: 0.252
KELRQKLNFSACE [Y11A]: 0.138
KELRQKLNFSYCA [E13A]: 0.292

Sample 6
Target: RNA binding protein fox-1 homolog 2, RRM domain, GST-SBP tag (RBFOX2, Homo sapiens, UniProt O43251-10, residues 100-194)
Technique: RNA Bind-n-Seq
Form: RNA
Medium: in vitro
Concentration: 365 nM
Notes: natural RNA segment, single round, ends assumed
Reference: no-protein control
Reading: higher = stronger binding
Quantity: RBNS enrichment (R)
Constant ends, left off below: GGGAGUUCUACAGUCCGACGAUC … UGGAAUUCUCGGGUGCCAA
Target sequence (chain): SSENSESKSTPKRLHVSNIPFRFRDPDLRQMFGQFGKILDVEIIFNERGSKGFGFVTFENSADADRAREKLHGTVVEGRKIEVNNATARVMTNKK
AUAAAAAGGAUACAGAAUUGUAUAUACAUACUUACUGUAACACAUCUAAAAAAAUGUAUAUGGGUAAGGACCUGAAAGAUCCAUGGAAAAGUUAACCCAGUUGAGAUUUU: 0.379
CCCAGAGCAGCACAAUGCCCGUCUGAGCCCCACGUGGCAGGAGCCUCUGGGACGGGGCACACACAGGCCCAGCCUCUGUGCUGUCUCCUCCUCCGUGCGCCUCAGACUCG: 0.368
GACCCUUUGUGUUUUAGUGACUCAGAAAAGUCAAGCCAUUUGCAAAAGUUAGCAGUUUGUUUUGUCAACUUGUAACUGGGUCAUAGCCUUGCUGAGUGAAACCAACUCAU: 0.423
CCCUAUCCUAAGACUCGGAAAGGCCCACCCUGAGGUUCUAUUGCCUUCCUGGUGGUAUCAGCUUCCAGCUGUUUCAACCCUUCCCAGCCCGUUGCUGGCGAUGGGCCCAU: 0.169
AAAUGAAGGCUCCCAUGAGUCUUCACUAGAAAGAUGUGGUCCCCAUCCCCACCCUGACUGAGACCUGUGAAGAUGCAGAGUGGCAGGGAAGGUCACAGAGCUCCACCACC: 0.272
CACCCAAAGGCUCCAGCCAGCUGCACUCCUGGCAGUUUCCUGCACUUGGGCCUGAUGCUUCUCUAACUGGCAGAAGCAGGCUCUACCUGGACCUCCAGCUGGGAGGUCAU: 0.508
AUCCAUUGCUCAAUGGUACAGAGUGUGGGGUCAGUCCACCACCCUUGACCUCCCGGCAGGGCAAGGUGAGGAGGCGGACCCAAAGCAGUACCAGCAGGACUUGUUGCCAG: 0.378
AAAAAUUAGACUGGAAAGUUCAGAAGUACUAAUGCUCCCACAGAAUUGAUUUUAACCCUGAGGUUACAAAGCAGAAGUUAAAUGAACAGCUAGAGGAAGCAGCCUUCCCA: 0.449
GAAAAGAGGCCCAUGGCGUCGAGCCCAGCCCUGACCGCCAGCUGGCUGAGGUCGUGCCCUGCUGGGCUGCCCUCCAAUGUGCCUCACGCAAUAAAGAAUUCUCCCUCUGC: 0.262
CACAGCCAUUCCCUCAUGAGAGGUGGCUCUCAUGGCAUCUUGCAAUGUUUGUCUUGUUUUGUUCAUUUGGCCAGUAAGGAAUGUCCCUGGGCUUUGAGUUUCCAGAAAGA: 1.24
UUAUUGCUACUUGAUUUUGUUAUGCAAGUUAGAUUUCAGAAGAAUAGAUUUUAAAACACUUAACCAAGCCAUUACAUCUUAAAAACAAAACAAGUAGCAUACAUUUUGUA: 1.06
UCCACGUCACGUCCAGCUGGGCCUGGCCAGUCUGUGGUUAUCCAUGUGGGAUGAGAUAACACCACAUCCUGCAGCUGUGAAGGGGGAUGGACAAGGGACGACGGCCGACG: 0.618

Some of these lines once more (sample 6):
CACCCAAAGGCUCCAGCCAGCUGCACUCCUGGCAGUUUCCUGCACUUGGGCCUGAUGCUUCUCUAACUGGCAGAAGCAGGCUCUACCUGGACCUCCAGCUGGGAGGUCAU: 0.508
CCCUAUCCUAAGACUCGGAAAGGCCCACCCUGAGGUUCUAUUGCCUUCCUGGUGGUAUCAGCUUCCAGCUGUUUCAACCCUUCCCAGCCCGUUGCUGGCGAUGGGCCCAU: 0.169
UUAUUGCUACUUGAUUUUGUUAUGCAAGUUAGAUUUCAGAAGAAUAGAUUUUAAAACACUUAACCAAGCCAUUACAUCUUAAAAACAAAACAAGUAGCAUACAUUUUGUA: 1.06
AUCCAUUGCUCAAUGGUACAGAGUGUGGGGUCAGUCCACCACCCUUGACCUCCCGGCAGGGCAAGGUGAGGAGGCGGACCCAAAGCAGUACCAGCAGGACUUGUUGCCAG: 0.378
AAAAAUUAGACUGGAAAGUUCAGAAGUACUAAUGCUCCCACAGAAUUGAUUUUAACCCUGAGGUUACAAAGCAGAAGUUAAAUGAACAGCUAGAGGAAGCAGCCUUCCCA: 0.449
AAAUGAAGGCUCCCAUGAGUCUUCACUAGAAAGAUGUGGUCCCCAUCCCCACCCUGACUGAGACCUGUGAAGAUGCAGAGUGGCAGGGAAGGUCACAGAGCUCCACCACC: 0.272
UCCACGUCACGUCCAGCUGGGCCUGGCCAGUCUGUGGUUAUCCAUGUGGGAUGAGAUAACACCACAUCCUGCAGCUGUGAAGGGGGAUGGACAAGGGACGACGGCCGACG: 0.618
GAAAAGAGGCCCAUGGCGUCGAGCCCAGCCCUGACCGCCAGCUGGCUGAGGUCGUGCCCUGCUGGGCUGCCCUCCAAUGUGCCUCACGCAAUAAAGAAUUCUCCCUCUGC: 0.262
GACCCUUUGUGUUUUAGUGACUCAGAAAAGUCAAGCCAUUUGCAAAAGUUAGCAGUUUGUUUUGUCAACUUGUAACUGGGUCAUAGCCUUGCUGAGUGAAACCAACUCAU: 0.423
CACAGCCAUUCCCUCAUGAGAGGUGGCUCUCAUGGCAUCUUGCAAUGUUUGUCUUGUUUUGUUCAUUUGGCCAGUAAGGAAUGUCCCUGGGCUUUGAGUUUCCAGAAAGA: 1.24
AUAAAAAGGAUACAGAAUUGUAUAUACAUACUUACUGUAACACAUCUAAAAAAAUGUAUAUGGGUAAGGACCUGAAAGAUCCAUGGAAAAGUUAACCCAGUUGAGAUUUU: 0.379
CCCAGAGCAGCACAAUGCCCGUCUGAGCCCCACGUGGCAGGAGCCUCUGGGACGGGGCACACACAGGCCCAGCCUCUGUGCUGUCUCCUCCUCCGUGCGCCUCAGACUCG: 0.368
